Published values gathered from unrelated publications.
Numbered parts are unrelated; each lists some results of a single study.

Set 1 — method: RNA Bind-n-Seq; form: RNA; medium: in vitro; tested at: 15 pmol; notes: 4-mer, random 30-nt RNA, single round; added: DMSO vehicle, 2 mM AMP-PNP; relative to: input library; direction: higher = stronger binding
Target: Eukaryotic initiation factor 4A-I (EIF4A1, Homo sapiens, UniProt P60842, residues 1-406, full length assumed)
UniProt P60842, sequence (whole entry, looked up): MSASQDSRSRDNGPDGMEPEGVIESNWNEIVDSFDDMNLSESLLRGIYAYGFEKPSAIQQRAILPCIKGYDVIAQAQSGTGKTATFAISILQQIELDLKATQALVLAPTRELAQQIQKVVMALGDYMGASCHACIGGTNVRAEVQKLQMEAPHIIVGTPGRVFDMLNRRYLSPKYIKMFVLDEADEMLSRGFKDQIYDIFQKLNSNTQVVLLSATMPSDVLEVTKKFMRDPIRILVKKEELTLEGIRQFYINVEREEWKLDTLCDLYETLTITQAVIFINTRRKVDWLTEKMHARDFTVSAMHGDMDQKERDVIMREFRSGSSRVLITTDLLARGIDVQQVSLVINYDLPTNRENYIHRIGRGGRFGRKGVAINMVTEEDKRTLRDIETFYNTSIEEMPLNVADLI
Strand | 4-mer enrichment [fold]
AACA | 1.52
UUCC | 1.32
GAUU | 0.933
GGGA | 1.08
AAUU | 0.862
UGAU | 0.902
GGUC | 1.08
UCAA | 1.4
UUGC | 0.939
UCAC | 1.05
CCCC | 1.7
GGGG | 1.04

Set 2 — method: protein binding microarray; form: double-stranded DNA, one strand shown; medium: in vitro; tested at: not given; relative to: not given; direction: higher = stronger binding
Target: Histone acetyltransferase KAT6A, both winged helices, GST fusion (KAT6A, Homo sapiens, UniProt Q92794, residues 1-181)
Notes: 8-mer, flanks averaged, mean of 2 arrays, mostly near background
Residues (chain): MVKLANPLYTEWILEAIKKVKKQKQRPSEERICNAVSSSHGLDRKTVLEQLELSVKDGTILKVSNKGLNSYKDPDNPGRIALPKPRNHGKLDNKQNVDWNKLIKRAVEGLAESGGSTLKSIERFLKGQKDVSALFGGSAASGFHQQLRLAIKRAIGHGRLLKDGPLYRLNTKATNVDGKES
Strand | E-score
CACCGGGA | 0.149
AGGATAAC | -0.208
CTTCCTTA | -0.156
TACGGTAA | 0.171
ACTCACAG | -0.193
ATTAAGCC | 0.0205
GCTCGAGA | 0.0466
AAGACGTA | -0.102
ACAACGTG | -0.00983
GCATAAGA | -0.0695
AACACAAC | -0.0101
CTGGGACA | -0.124
CCTAGGCC | -0.1
CGAGGGGA | -0.0845
ATGGGTGG | -0.233
GATCCGAA | -0.119
TAGGAGAA | -0.244
AATCCAGT | -0.111
CCCGGGCG | 0.332
TATATAGA | -0.0091
CGTGTAAC | 0.0467

Set 3 — method: RNA Bind-n-Seq; form: RNA; medium: in vitro; tested at: 1 µM; notes: whole 134-nt RNA, ends assumed; added: 150 mM KCl; relative to: input library; direction: higher = stronger binding
Target: Ras GTPase-activating protein-binding protein 1, RRM domain (G3BP1, Homo sapiens, UniProt Q13283)
UniProt Q13283, sequence (whole entry, looked up): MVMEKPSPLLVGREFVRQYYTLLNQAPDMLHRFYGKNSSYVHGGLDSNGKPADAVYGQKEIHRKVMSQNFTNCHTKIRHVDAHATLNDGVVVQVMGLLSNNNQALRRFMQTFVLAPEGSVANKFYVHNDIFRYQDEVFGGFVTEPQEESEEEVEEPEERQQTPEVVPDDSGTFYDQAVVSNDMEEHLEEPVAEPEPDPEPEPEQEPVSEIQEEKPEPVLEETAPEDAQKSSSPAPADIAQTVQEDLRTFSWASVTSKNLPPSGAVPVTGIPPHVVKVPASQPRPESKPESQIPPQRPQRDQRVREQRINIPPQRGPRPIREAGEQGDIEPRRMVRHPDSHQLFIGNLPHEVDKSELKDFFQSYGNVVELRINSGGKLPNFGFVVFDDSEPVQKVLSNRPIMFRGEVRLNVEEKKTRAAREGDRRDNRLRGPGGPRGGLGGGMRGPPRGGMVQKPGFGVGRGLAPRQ
All sequences stand within: GGGAGUUCUACAGUCCGACGAUC … UGGAAUUCUCGGGUGUCAAGG
Strand | log2 enrichment
GUCCUGUGCUACACAUCGUAUGUACCGAAUCGGGGUUUUUGGGGUUUUUGGGGUGGGGAAAGUAUUAUGUUACGCCGUUCGGAUCUGCAC | 0.698
UGGCCCUGGUGGCAUGCGGGGAGGAAGAGGUGGCCUCAUGGAUCGUGGUGGUCCUGGUGGAAUGUUCAGAGGUGGCCGUGGUGGAGACAG | 0.405
GCAGGAAGUAAAAACAAAUGGAAAUGCUUCGGAUAGUGGCAGGGGUGGGGGUUGCUAAGGAAAGGGUGGGAUGGGAGUGAGUAAAGAGUU | 1.13
AAGUCCUGUGCUACACAUCGUAUGUACCGAAUCGGGUGGGUUUUUGGGAAAAAGGGAAAGUAUUAUGUUACGCCGUUCGGAUCUGCACUU | 0.452
AGUCCUGUGCUACACAUCGUAUGUACCGAAUCGGGUUUGGGUUUUUUUGGGAAAGGGAAAGUAUUAUGUUACGCCGUUCGGAUCUGCACU | 0.71
CCUGUGCUACACAUCGUAUGUACCGAAUCGGGGUUUUUUUGGUUUUUUUGGGUUUUUUUGGAAAGUAUUAUGUUACGCCGUUCGGAUCUG | -0.195
CCUCAAGUCCUGUGCUACACAUCGUAUGUACCGAAUCGGGAAGGAAGGAAGGGAAAGUAUUAUGUUACGCCGUUCGGAUCUGCACUUCCA | -0.264
GCAGGAAGUAAAAACAAACGGAAAUGCUUCGGAUAGUGGCAGGGGUGGGGGUUGCUAAGGAAAGGGUGGGAUGGGAGUGGGUAAAGAGUU | 0.952
UCCUGUGCUACACAUCGUAUGUACCGAAUCAAACCCCCCCAAACCCCCAAACCCCCAAAAAAGUAUUAUGUUACGCCGUUCGGAUCUGCA | -0.196

Set 4 — method: RNA Bind-n-Seq; form: RNA; medium: in vitro; tested at: 365 nM; relative to: no-protein control; direction: higher = stronger binding
Target: RNA binding protein fox-1 homolog 2, RRM domain, GST-SBP tag (RBFOX2, Homo sapiens, UniProt O43251-10, residues 100-194)
Notes: natural RNA segment, single round, ends assumed
All sequences stand within: GGGAGUUCUACAGUCCGACGAUC … UGGAAUUCUCGGGUGCCAA
Target sequence (chain): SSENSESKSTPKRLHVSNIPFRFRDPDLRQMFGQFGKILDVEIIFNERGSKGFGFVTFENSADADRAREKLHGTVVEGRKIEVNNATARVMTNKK
Strand | RBNS enrichment (R)
UAUUAUAUACAGAUUUUAAAAAAGAGAUAAUGCCUAUGUACCAGGGAGAAGGAGCGGGCCCUCCCGCGCCCUGUGCUGGCCGGAGCAGCGUUUUCUUAUGGUGGAGCAGC | 0.342
ACUAACUCAGUACUCGUGGGAGGACACCCGACCCGGGUGUUCUUUGAGAAGCAGCUGAGUGAGGCAUGUUUUGACAGGAGGAACCCAGUUCUUUUCACUGUUGGUAUUUA | 1.31
AGAUGGAAAGAGAUGAGCCUAAGGAUACCAGGUUCAAAACGGUUAUGACCAUACACACAGGCAUUUUACCUUAUGGAAGAGGAGACAGUUGUUCAUGGAAUUGAUGGGGG | 0.557
AGUGUGGCUUCAUGGGAGCCCUGUUACUUCUCCAUGAAACCCCAGCUCUCUAGGCCUGACUGCCACCAGAGUCCUCUUACCACCUGCAGUCUGCCACAAAGAUGCCAUAU | 0.474
CUGUAGAGACUCUGGUACAGAGGGCAUGGGCACCUGCAGCAUUAUAGCUGUUCUGUCUCCUGGAGACCAAAGCUGGCUUGGAGGAAAAAAUGAUGCCCACAGUCUUGGGA | 1.31
AAACAGCUAUAGAUAACAUUAUCCAGUGAAGAGCAAAAUUCAAGCUUUAGAAAAUAUUCAUGCAUGCAAUUUUGACAUAUCUAAAAAUAGGUUUUUGUAUAUUUAUGGUG | 1.13
GUAUUUUUGCAUGGUUCCUUGUAUUGCAUUUCUUUGCACAUAUUAUGGGCUUGUGACCCUAAACUUGCAGGCAAGGUUAGCUGCUUUAGUAAGUAGAAUUUUGUGGUCUU | 3.82
GAAAGUCUGAUGCUAAGAUACUGCCUGCACUGGAAUGUUAAACACUAAAUAUAUAACAAGCUGUGUUUUCCUAAGCUGAGAUCUGUUGAAUAAUGUUUACAUUCGUCCCC | 0.234

Repeated from above (set 2):
Strand | E-score
CCTAGGCC | -0.1
CGAGGGGA | -0.0845
GATCCGAA | -0.119
